Measured values gathered from unrelated publications.
Every numbered part comes from another study and shows a few of its results, in no order. Positions count from the first letter of the parent shown.
Chain of UniProt Q15418 (whole entry, looked up): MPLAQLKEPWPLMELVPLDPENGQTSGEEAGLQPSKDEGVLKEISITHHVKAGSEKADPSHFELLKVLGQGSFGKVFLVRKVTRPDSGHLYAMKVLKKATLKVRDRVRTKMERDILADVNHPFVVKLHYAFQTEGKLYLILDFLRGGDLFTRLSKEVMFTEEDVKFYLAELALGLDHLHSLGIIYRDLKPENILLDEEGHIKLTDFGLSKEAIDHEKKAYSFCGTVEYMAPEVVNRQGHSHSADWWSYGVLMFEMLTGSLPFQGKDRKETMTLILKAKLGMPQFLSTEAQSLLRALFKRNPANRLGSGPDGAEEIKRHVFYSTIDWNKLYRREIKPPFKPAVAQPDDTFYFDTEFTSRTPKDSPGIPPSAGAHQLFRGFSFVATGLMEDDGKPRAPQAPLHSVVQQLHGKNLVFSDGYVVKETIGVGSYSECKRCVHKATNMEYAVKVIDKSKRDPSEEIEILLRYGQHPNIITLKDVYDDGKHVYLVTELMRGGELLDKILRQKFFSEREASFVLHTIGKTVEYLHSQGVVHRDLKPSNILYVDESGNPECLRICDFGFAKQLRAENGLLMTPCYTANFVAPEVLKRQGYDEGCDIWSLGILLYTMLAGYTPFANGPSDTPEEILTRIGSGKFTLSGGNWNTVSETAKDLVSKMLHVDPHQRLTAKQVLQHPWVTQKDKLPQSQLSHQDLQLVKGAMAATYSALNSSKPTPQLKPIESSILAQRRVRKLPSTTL

Sample 1
Target: POU domain, class 5, transcription factor 1, POU domain (Pou5f1, Mus musculus, UniProt P20263, residues 131-289)
Chain of UniProt P20263 (131-289, looked up): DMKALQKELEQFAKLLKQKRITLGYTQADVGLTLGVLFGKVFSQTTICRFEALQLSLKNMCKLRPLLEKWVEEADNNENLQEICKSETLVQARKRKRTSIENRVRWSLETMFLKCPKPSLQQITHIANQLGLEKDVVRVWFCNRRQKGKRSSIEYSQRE
Technique: Spec-seq
Form: double-stranded DNA, one strand shown
Matrix: in vitro
Concentration: not given
Setting: whole probe, mean of replicates
Reference: not given
Reading: lower = stronger binding
All sequences stand within: GAGTCGTCTCGTCAGCAC … CCGTAGAGCACTCAGGTC
For `GGTGTAAT`, “relative binding energy” read 0.842 ln ratio.
`ATAAGGAT`: “relative binding energy” 0.567 ln ratio.
Under “relative binding energy”, `ATGCTACG` is recorded as 0.52 ln ratio.
`ATGCAGCT` — result for “relative binding energy”: 0.305 ln ratio.
`TATGTAAT` — result for “relative binding energy”: -0.648 ln ratio.
For `ATTTTAAT`, “relative binding energy” read -0.64 ln ratio.
For `ATCGATAT`, “relative binding energy” read 0.509 ln ratio.
For `ATCCATAT`, “relative binding energy” read -0.868 ln ratio.

Sample 2
Target: Sal-like protein 4, full length isoform B (SALL4, Homo sapiens, UniProt Q9UJQ4-2, residues 1-616)
Technique: universal PBM
Form: double-stranded DNA, one strand shown
Matrix: in vitro
Concentration: not given
Setting: 8-mer, flanks averaged, mean of replicates
Reading: higher = stronger binding
Construct (chain): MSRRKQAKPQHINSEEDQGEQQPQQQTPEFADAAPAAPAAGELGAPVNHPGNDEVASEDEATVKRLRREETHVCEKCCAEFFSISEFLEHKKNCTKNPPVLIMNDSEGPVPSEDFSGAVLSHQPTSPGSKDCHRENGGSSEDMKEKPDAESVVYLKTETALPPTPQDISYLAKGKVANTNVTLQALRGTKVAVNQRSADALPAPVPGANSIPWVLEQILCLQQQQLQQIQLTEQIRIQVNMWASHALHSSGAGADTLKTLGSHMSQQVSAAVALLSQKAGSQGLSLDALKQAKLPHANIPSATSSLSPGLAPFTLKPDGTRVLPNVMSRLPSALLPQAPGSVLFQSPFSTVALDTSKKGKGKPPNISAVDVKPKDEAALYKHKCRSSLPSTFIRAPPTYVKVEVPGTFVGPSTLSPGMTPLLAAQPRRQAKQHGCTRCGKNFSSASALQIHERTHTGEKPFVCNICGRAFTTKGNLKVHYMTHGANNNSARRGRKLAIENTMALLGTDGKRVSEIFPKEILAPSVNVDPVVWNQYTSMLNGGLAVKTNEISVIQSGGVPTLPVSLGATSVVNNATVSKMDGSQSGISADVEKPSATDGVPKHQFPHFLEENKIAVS
With `ATAAGCTA` the E-score was 0.256.
The E-score of `AACGTACA` is reported as 0.194.
For `CAGCCTCC`, the E-score was -0.308.
The E-score of `GAACCGTC` is reported as -0.108.
With `AACCACAA` the E-score was 0.121.
For `GCGTATCA`, the E-score was 0.099.
The E-score of `AATTGTAC` is reported as 0.201.
`TAAAGCTA` gave an E-score of 0.0781.

Sample 3
Target: CREB5, bZIP domain (human)
Technique: DHFR protein complementation
Matrix: yeast
Setting: single substitutions, most at no-binding floor
Reference: wild-type JUN-FOS pair
Reading: higher = stronger binding
Starting sequence: JUN, bZIP domain (human); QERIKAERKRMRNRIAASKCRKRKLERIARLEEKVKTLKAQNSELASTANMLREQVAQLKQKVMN; partner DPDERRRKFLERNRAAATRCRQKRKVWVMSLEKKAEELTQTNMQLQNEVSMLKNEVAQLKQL
With `Q55A` the binding fitness was -0.553 natural log.
`L45Q` has a binding fitness of -1.5 natural log.
The binding fitness of `V35C` is reported as -0.285 natural log.
For `L45S`, the binding fitness was -1.28 natural log.
`M51D` has a binding fitness of -0.122 natural log.
With `S43R` the binding fitness was -0.194 natural log.
For `M51I`, the binding fitness was -0.333 natural log.
`I28R` gave a binding fitness of -0.326 natural log.

Mixed results
The remaining activity of `CS(=O)(=O)CCNCc1ccc(-c2ccc3ncnc(Nc4ccc(OCc5cccc(F)c5)c(Cl)c4)c3c2)o1` is reported as 105% (Ribosomal protein S6 kinase alpha-1 (RPS6KA1, Homo sapiens, UniProt Q15418); enzyme activity, inhibitor; 0.5 µM; reference: control).

Repeated from above (sample 1):
For `GGTGTAAT`, “relative binding energy” read 0.842 ln ratio.
`ATAAGGAT`: “relative binding energy” 0.567 ln ratio.
Under “relative binding energy”, `ATGCTACG` is recorded as 0.52 ln ratio.
`ATGCAGCT` — result for “relative binding energy”: 0.305 ln ratio.
